Experimental data from different studies.
Parts stem from different laboratories: compare values within a part only.

Series 1
Target: Interferon regulatory factor 7, full length, phosphomimetic (IRF7, Homo sapiens, UniProt Q92985, residues 1-503, S101K/S471D/S472D/S475D/S476D/S477D/S483D/S484D/S487D)
Method: protein-binding microarray
Molecule type: double-stranded DNA, one strand shown
Sample: in vitro
Concentration: 250 nM
Setting: 60-bp whole probe
Added: salmon DNA 0.4 mg/ml
Relative to: random background probes
Reading: higher = stronger binding
All sequences stand within: GCCTAGCAC … GTCTTGATTCGCTTGACGCTGCTG
Target sequence (chain): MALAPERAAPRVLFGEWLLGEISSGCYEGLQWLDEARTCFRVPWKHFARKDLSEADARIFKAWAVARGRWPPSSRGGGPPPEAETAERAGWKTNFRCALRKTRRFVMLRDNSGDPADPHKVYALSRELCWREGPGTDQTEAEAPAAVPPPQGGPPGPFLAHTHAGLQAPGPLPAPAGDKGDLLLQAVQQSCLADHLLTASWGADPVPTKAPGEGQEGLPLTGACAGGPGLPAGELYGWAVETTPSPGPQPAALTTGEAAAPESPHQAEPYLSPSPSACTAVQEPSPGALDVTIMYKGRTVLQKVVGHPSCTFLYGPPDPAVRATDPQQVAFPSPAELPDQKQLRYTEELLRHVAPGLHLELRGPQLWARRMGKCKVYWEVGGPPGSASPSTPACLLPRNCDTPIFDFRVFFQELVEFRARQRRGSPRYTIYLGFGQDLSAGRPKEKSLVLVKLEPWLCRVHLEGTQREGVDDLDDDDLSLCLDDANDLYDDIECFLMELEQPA
Sequence	log fluorescence [z-score]
GACGGTTTCCTTATCCTAACGTGCTAG	3.68
TTAGGTTTCGGACTAGGTTAGTGCTAG	4.52
TTAGATTCCAGTTTGGATTAGTGCTAG	1.68
TTAGATATCAGGTTTCGATTAGTGCTA	7.9
TTAGATATCGGGACTGGATGAGTGCTA	-0.152
GACGGTTTCAGTTTCGAGACGTGCTAG	8.4
TTAGGACTGGGACTTGGTTAGTGCTAG	-0.00758
TTAGGTTTCGGACGGGGTTAGTGCTAG	1.57

Series 2
Target: Replicase polyprotein 1ab, main protease (rep, Severe acute respiratory syndrome coronavirus 2, UniProt P0DTD1)
Read-out: enzyme activity
Mode: inhibitor
Concentration: 20 µM
Setting: hit confirmation
Compound	inhibition
Cc1ccc(S(=O)(=O)N[C@@H](Cc2ccccc2)C(=O)CCl)cc1	108%
Cc1ccccc1N(C)C(=O)c1ccc([S+]([O-])c2nccs2)c([N+](=O)[O-])c1 (stereo not shown)	100%
CN1CCN(c2cccc(Nc3nc4c(-c5ccc(S(C)(=O)=O)cc5)cccn4n3)c2)CC1	-10.3%
CS/C(N)=C(C#N)/C(C#N)=C(\N)SC	88.8%
CCc1ccc(/C=C/C(=O)Nc2ccc(C(C)=O)cc2)o1	64.7%

Series 3
Cell line: HEK-293T
Read-out: pseudovirus infection
Method: FDA-approved drug library screen
Organism: VSV pseudotyped with SARS-CoV-2 spike
Concentration: 10 µM
Time: 16 h
Relative to: vehicle-treated
SMILES	GFP-positive cells [%]
CC(C)NCC(O)c1ccc(NS(C)(=O)=O)cc1 (stereo not shown)	103
CCCOc1ccc(C(=O)OCCN(CC)CC)cc1N	128
OCCOCCN1CCN(C(c2ccccc2)c2ccc(Cl)cc2)CC1 (stereo not shown)	48.5
O=P1(NCCCl)OCCCN1CCCl (stereo not shown)	119
NC[C@H]1O[C@H](O[C@H]2[C@H](O)[C@@H](O[C@H]3O[C@H](CO)[C@@H](O)[C@H](N)[C@H]3O)[C@H](N)C[C@@H]2N)[C@H](N)C[C@@H]1O	86
O=c1[nH]c(=O)n([C@H]2C[C@H](O)[C@@H](CO)O2)cc1I	70.3

Series 4
Target: Replicase polyprotein 1ab, nsp13 helicase (rep, Severe acute respiratory syndrome coronavirus 2, UniProt P0DTD1)
Mode: inhibitor
Concentration: 20 µM
Structure (SMILES)	inhibition [%]
COC(=O)[C@]12CCC(C)(C)C[C@H]1[C@H]1C(=O)C=C3[C@@]4(C)C=C(C#N)C(=O)C(C)(C)[C@@H]4CC[C@@]3(C)[C@]1(C)CC2	11.2
O=C(O)C1=CCCN(CCOC(c2ccc(C(F)(F)F)cc2)c2ccc(C(F)(F)F)cc2)C1	3.7
CN1C[C@H](CNC(=O)OCc2ccccc2)C[C@@H]2c3cccc4c3c(cn4C)C[C@H]21	8.1
CC(C)C[C@H](NC(=O)[C@@H]1CCCN1)C(=O)NCC(N)=O	6.09
CO[C@H]1C[C@H](O[C@@H]2/C(C)=C/C[C@@H]3C[C@@H](C[C@]4(CC[C@H](C)[C@@H](C5CCCCC5)O4)O3)OC(=O)[C@@H]3C=C(C)/C(=N/O)[C@H]4OC/C(=C\C=C\[C@@H]2C)[C@]43O)O[C@@H](C)[C@@H]1O	-4.7
O=C1Nc2ccccc2C12OCC1(CO2)COC2(OC1)C(=O)Nc1ccccc12 (stereo not shown)	-4.43
CC(C)C[C@H](N)C(=O)O	1.72
O[C@H]1CC[C@H](Nc2nc(-c3ccccc3)nc3[nH]ccc23)CC1	5.08
Cc1ccc(NC2=CC(=O)c3sc(C)nc3C2=O)cc1	-0.99
CN(CCc1ccc(Cl)c(Cl)c1)CCN1CCCC1	6.98
CC(=O)Nc1ccc(NC(=S)NC(=O)c2ccc(C(C)(C)C)cc2)cc1	-0.84
COC(=O)[C@H](Cc1cccc(C(=N)N)c1)[C@@H](C)NC(=O)c1ccc(-c2cc[n+]([O-])cc2)cc1	10.1
NC(Cc1ccc(O)cc1)C(=O)O (racemic)	2.1
COc1cc(C(C)=O)ccc1O	9.32
NC(=O)N1c2ccccc2CC(O)c2ccccc21 (stereo not shown)	1.99
CCc1ccc2c(-c3cccc(Cl)c3)nc(=O)n(CC)c2n1	-1.06
C/C(=C\c1ccc(C(=O)O)cc1)c1ccc2c(c1)C(C)(C)CCC2(C)C	8.01
CN1CCN(c2ccc(OC(F)(F)F)c(Nc3ncc4c(n3)-c3c(c(C(N)=O)nn3CCO)CC4)c2)CC1	-0.87

Repeated from above (series 1):
Sequence	log fluorescence [z-score]
TTAGGACTGGGACTTGGTTAGTGCTAG	-0.00758
TTAGATATCGGGACTGGATGAGTGCTA	-0.152
TTAGGTTTCGGACTAGGTTAGTGCTAG	4.52
TTAGGTTTCGGACGGGGTTAGTGCTAG	1.57
